Published values of several laboratories.
Numbered parts are unrelated; each lists some results of a single study. Positions count from the first letter of the parent shown.

Block 1
Target: Histone acetyltransferase KAT6A, winged helix 2, GST fusion (KAT6A, Homo sapiens, UniProt Q92794, residues 85-181)
Technique: protein binding microarray
Molecule type: double-stranded DNA, one strand shown
Matrix: in vitro
Tested at: not given
Notes: 8-mer, flanks averaged, mean of 2 arrays, mostly near background
Reference: not given
Direction: higher = stronger binding
Quantity: E-score
Construct (chain): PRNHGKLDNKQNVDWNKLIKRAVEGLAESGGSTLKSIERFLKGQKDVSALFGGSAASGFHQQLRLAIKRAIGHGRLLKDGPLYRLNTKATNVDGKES
AGCCACTC: -0.1
GACGCCAC: -0.0362
GAAAGTTC: -0.0736
ATAGAACA: -0.105
ACACATTA: -0.241
AGTGGTGC: -0.0769
GCCTCTTA: 0.0955
AACGCGAT: -0.029

Block 2
Target: RING finger protein unkempt homolog, zinc fingers 1-6, SBP tag (UNK, Homo sapiens, UniProt Q9C0B0, residues 30-357)
Sequence of UniProt Q9C0B0 (30-357, looked up): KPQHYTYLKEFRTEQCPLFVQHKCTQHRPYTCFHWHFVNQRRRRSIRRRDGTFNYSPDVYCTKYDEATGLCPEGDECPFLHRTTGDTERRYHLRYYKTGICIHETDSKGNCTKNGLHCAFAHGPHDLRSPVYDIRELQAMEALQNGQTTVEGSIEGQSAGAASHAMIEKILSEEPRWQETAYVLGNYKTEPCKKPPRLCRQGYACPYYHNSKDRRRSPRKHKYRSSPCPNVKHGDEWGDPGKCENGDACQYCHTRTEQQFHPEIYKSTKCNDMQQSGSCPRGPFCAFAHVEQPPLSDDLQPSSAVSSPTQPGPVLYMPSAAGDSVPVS
Technique: RNA Bind-n-Seq
Molecule type: RNA
Matrix: in vitro
Tested at: 100 nM
Notes: RNA with constant flanks, vertebrate orthologous sites, ends assumed
Reference: input RNA pool
Direction: higher = stronger binding
Quantity: bound/input enrichment
All sequences stand within: GGGAGUUCUACAGUCCGACGAUC … CAACAGAGGAUUGAGCAUCA
CUUUAUGGGCCUCGAAGAGUUGAAAUAAUGGAAGAAGAAAGUGAACAGUAAUCUUCAAUUUAGUAUUUAUGCUUAGGUGUGAAUGUUUUUGUUGUUGUUGUUGAACAUUUCUAUAAUCUU: 0.417 ratio
UCCUCAACUUGUUCUAGCUUGUGAUCCUUCAAAGUUGGGUCAUACGUUAGUGCUAGAUACUAGAAAUUUUCACUUUUCCACUGAUCAGAGAGACAGACAUUAAAAACAAAAAUAGAAGAA: 3.16 ratio
UCUAGACAGUUUUAAAGAUACUUCCUCAUAAGAUGCUUUGGCCCUUCAUCUAUUUAAUCGUAGCUACAUAUCUAUUUUUAUAAGUAGCAGUACACCUUCCAAGGGGACUCAACUUUUAUC: 0.514 ratio
GGAUAUGGCCUUGGAGGAAUCUCUGCCUUGGCCUUGCCUCCCCUCCUUGCCACCAGCCCCUAGGUAUUUUUUUUUAACCACCACUUGAUUCUGGUCGGCACUUCCACCCCCGACCUUUUC: 1.23 ratio
UCCUCAACGUGUUCUAGCUUGUGAUCCUUCAAAGAUGGGUUAUGUGUUAAUGAUAGGUACUAGAAAUGUUUACUUCUCUCUUUCCACUGAUCAGAGAAACAGGCAUUAAAGACAGAAUGC: 0.457 ratio
AUUGAACAAAAAUGUUUCCACUGGCUUUUGCCUGUAAGAAAAACAAUGUACCCGAGCACAUAGAGCUUUUUAAUAGCACUAACCAAUGCCUUUUUAGAUGUAUUUUUGAUGUAUAUAUCU: 0.625 ratio
UUUAAUUAUGAAAAUAUAAAGGAUUUUUAAUGUUUAAUUUCCCCUGGCAUAUUAAGACAUCUUUUUUUCCAGGCAGAUCACUCAGUGUGUGAGUGUGUGUACACAUGUUACAAAGACAAC: 0.0618 ratio
CUUACCUGGUUAAUGUGUUUCUAUUUAUUGAGUAUAGUUUGUGCUAAACAUUGUGUUAAAUAGUGGAUUGACUCCACGUUGUUGUGUUGUUUUCAUUGUUGAAAAUAAAUAUAACUUUGU: 0.315 ratio

Block 3
Target: CCNB3, cyclin fold, Cln2 fusion (human)
Technique: yeast growth competition, sequencing
Matrix: yeast
Notes: weak parent motif
Reference: not given
Direction: higher = stronger binding
Quantity: normalised enrichment score
Starting sequence: HIRA docking peptide (human); SLSKRKLELEVET
SLSKRKLELEVAT [E12A]: -0.0995
SLSKRKLEFEVET [L9F]: 0.182
SLSARKLELEVET [K4A]: -0.0954
SLSKRKLELEVEA [T13A]: 0.518
SLAKRKLELEVET [S3A]: -0.213
SLSKRKLELEAET [V11A]: -0.066
SLSKRKAELEVET [L7A]: 0.397

Further values, each from its own experiment
PhoQ, residues 284 288 289 292 302 303 ALVSVA
fold induction (PhoP, residues 12 14 15 18 19 GQAIL (Escherichia coli, UniProt P23836); Sort-seq, refers to: YFP reporter; E. coli; PhoQ-PhoP variant library, added: 10 µM Mg2+; reference: high Mg2+ state, higher = stronger signaling): 16.6

For quick reference, copied from above (block 3):
SLSKRKLEFEVET [L9F]: 0.182
SLSARKLELEVET [K4A]: -0.0954
